Measured values collected from several papers.
Lines come from different studies, so protocols differ. ± gives the spread as reported.

| SMILES | assay | system | setting | scale | measurement | result |
| --- | --- | --- | --- | --- | --- | --- |
| CCN(CC)C(=O)[C@@H]1C=C2c3cccc4[nH]cc(c34)C[C@H]2N(C)C1 | item: abdominal pressure or fullness | healthy volunteers | dose not given, 0 to 12 h | reference: placebo, direction not given | List of Complaints score | 0 |
| CCCCCn1nc(C(=O)Nc2cccc3ccccc23)c2ccccc21 |  | rat liver microsomes | scaled to whole liver |  | scaled intrinsic clearance | 775 mL/min/kg |
| CCCCCCCCCCC(=O)O[C@H]1CC[C@H]2[C@H]3[C@H]([C@@H](C)C[C@]12C)[C@H]1CCC(=O)C=C1C[C@H]3C |  | human serum | 300 ng/mL, NaF 200 mg/mL |  | DMA level | not detected |
| C=C1C[C@H]2[C@@H]3CC[C@H](O)[C@@]3(C)CC[C@@H]2[C@@]2(C)C=CC(=O)C=C12 |  | human, postmenopausal women, serum | dose not given, GSTA1 genotype effect |  | serum level | no effect |
| O=C1c2c(O)c(=O)ccn2N([C@@H]2c3ccccc3SCc3c2ccc(F)c3F)[C@@H]2COCCN12 |  | BALB/c mice, plasma | oral, 0.5 mg/kg baloxavir marboxil, 6 h |  | plasma concentration | 1.6 ng/mL |
| CCCC(C(=O)c1ccc(O)c(O)c1)N1CCCC1 (stereo not drawn) |  | rat, plasma | subcutaneous, dose not given, after MDPV dosing, median |  | conjugated fraction | 88.1% |
| C[C@H]1CN(C(=O)CC#N)[C@]12CCN(c1ncnc3[nH]ccc13)C2 |  | healthy human | oral, 6 mg single |  | subjects with influenza-like illness | 0% |
| COc1cc(C[C@@H](C)N)c(OC)cc1I.Cl |  | 1-octanol/phosphate buffer | pH 7.4 |  | distribution coefficient | 3.03 |
| Cc1ncc2n1-c1ccc(Cl)cc1C(c1ccccc1F)=NC2 |  | Sprague-Dawley rat, male |  |  | unbound intrinsic clearance | 4370 mL/min/kg |
| O=C(O)CCC(CP(=O)(O)O)C(=O)O (stereo not drawn) |  | Wistar rat, male, sciatic nerve | ip, 100 mg/kg |  | Tmax | 15 min |
| Cc1cc(=O)n(-c2ccccc2)n1C | ultracentrifugation | human, perfused placenta maternal effluent |  |  | unbound fraction | 0.97 |
| CC(C)(C)[C@H](NC(=O)C(F)(F)F)C(=O)N1C[C@H]2[C@@H]([C@H]1C(=O)N[C@H](C#N)C[C@@H]1CCNC1=O)C2(C)C |  | hamster hepatocytes |  |  | scaled hepatic intrinsic clearance | 109 mL/min/kg |
| COc1cccc(C2(O)CCCCC2CN(C)C)c1 (stereo not drawn) | joint PK model | human, whole blood | oral, dose not given, two-compartment metabolite model |  | central volume | 0.429 L |
| Cc1ncc(OC[C@@]2(c3cccc(F)c3)C[C@H]2C(=O)Nc2ccc(F)cn2)c(C)n1 | population PK base model | human, plasma | oral |  | Q4/F | 25.4 L/h |
| Cc1ncc2n1-c1ccc(Cl)cc1C(c1ccccc1F)=NC2 |  | human, plasma | intravenous bolus, 3 µg, mean of subjects |  | clearance | 475 mL/min |
| Cc1ncc2n1-c1ccc(Cl)cc1C(c1ccccc1F)=NC2 |  | wild-type mice, plasma | intravenous, 0.3 mg/kg, together with: 14-day BC 500 mg/kg |  | AUC(0-inf) | 0.103 ± 0.0189 µM·h |
| O=C(O)c1cn(Cc2cccc(Cl)c2)c2ccccc12 |  | F344 rat, male, serum | oral, 150 mg/kg/day, 2 days, group mean |  | alanine aminotransferase | 69 U/L |
| C[C@]12CC[C@H]3[C@@H](CCC4=CC(=O)CC[C@@]43C)[C@@H]1CC[C@@H]2O |  | cryopreserved SD rat hepatocytes | 1 µM |  | scaled intrinsic clearance | 1110 mL/min/kg |
| CCCCCCC#Cc1cncc(-c2nnc(SCc3cc([N+](=O)[O-])cc([N+](=O)[O-])c3)n2C)c1 |  | mouse liver microsomes | microsomal stability |  | t1/2 | 4.8 min |
| C#Cc1ccc2c(c1)C(c1ccccn1)=NCc1c(-c3cnco3)ncn1-2.Cl | thermodynamic equilibrium, UV | ethyl acetate | 24 h, 25 °C |  | solubility | 224 µg/mL |
| C=C1C[C@H]2[C@@H]3CC[C@H](O[C@@H]4O[C@H](C(=O)O)[C@@H](O)[C@H](O)[C@H]4O)[C@@]3(C)CC[C@@H]2[C@@]2(C)C=CC(=O)C=C12 |  | postmenopausal women, serum | dose not given, UGT2B17 and GSTA1 genotypes |  | serum concentration | 59 nM |
| O=C(O)CCCO |  | male Sprague-Dawley rat | intravenous, 600 mg/kg daily, day 5, chronic |  | respiratory frequency area below curve | 4470 breaths |
| COc1cc2c(Oc3ccc4[nH]c(C)cc4c3F)ccnc2cc1OCC1(N)CC1 | item: grade 1 or 2 influenza-like symptoms | paediatric high-risk refractory sarcoma | 8 mg |  | incidence of adverse event | 6.7% |
| C[C@]12CC[C@H]3[C@@H](CCC4=CC(=O)CC[C@@]43C)[C@@H]1CC[C@@H]2O |  | CD-1 mouse liver microsomes | 1 µM, pH 7.4 |  | scaled CLint | 1660 mL/min/kg |
| OCc1ncc2n1-c1ccc(Cl)cc1C(c1ccccc1F)=NC2 | item: 1'-hydroxymidazolam | wild-type mice, plasma | iv, 500 mg/kg, 3 days, together with: midazolam 0.3 mg/kg, phenobarbital, 10 mg/kg pregnenolone 16α-carbonitrile |  | Cmax | 91 ± 30 nM |
| OCc1ncc2n1-c1ccc(Cl)cc1C(c1ccccc1F)=NC2 |  | healthy volunteers, plasma | dose not given, together with: momelotinib | reference: with momelotinib over alone | Cmax geometric mean ratio | 86% |
| CCCCCCCCCCC(=O)O[C@H]1CC[C@H]2[C@@H]3CCC4=CC(=O)CC[C@]4(C)[C@H]3CC[C@]12C |  | human male serum | 500 ng/mL, NaF 0.00 mg/mL, baseline testosterone 544 ng/dL |  | testosterone level | 523 ng/dL |
| CN/C(=N\[N+](=O)[O-])NCc1cnc(Cl)s1 |  | soil | 0 days, nominal 3.3 |  | concentration | 2.3 mg/kg dry soil |
| CCCCCCC#Cc1cncc(-c2nnc(SCc3ccc([N+](=O)[O-])o3)n2C2CC2)c1 |  | human liver microsomes | microsomal stability |  | t1/2 | 1.9 min |
| Cc1ncc2n1-c1ccc(Cl)cc1C(c1ccccc1F)=NC2 |  | healthy human volunteers, plasma | oral, dose not given, CYP3A probe substrate, together with: momelotinib | reference: compound alone | AUC0-last ratio | 84.1% |

Excerpt of the above:
| SMILES | assay | system | setting | scale | measurement | result |
| --- | --- | --- | --- | --- | --- | --- |
| Cc1ncc2n1-c1ccc(Cl)cc1C(c1ccccc1F)=NC2 |  | human, plasma | intravenous bolus, 3 µg, mean of subjects |  | clearance | 475 mL/min |
| CCCCCCC#Cc1cncc(-c2nnc(SCc3ccc([N+](=O)[O-])o3)n2C2CC2)c1 |  | human liver microsomes | microsomal stability |  | t1/2 | 1.9 min |
